Measurements of several laboratories.
Each line is one published result; not all experiments were run side by side. Several values in a cell are separate wells, animals, samples, runs or records. Numbers after ± are the reported error.

SMILES	cell line	test	test system	setting	how to read	measurement	value
Cn1cc(Nc2nccc(-c3ccc4c(c3)CN(C3COC3)CC[C@H]4NC(=O)c3cn(C(C)(C)C)nn3)n2)cn1	mouse splenic B cells	refers to: CNTF signalling		30 mg/kg, IgD-activated in vivo	relative to: vehicle, direction not given	pathway activation z-score	2.33
c1ccc2[nH]ccc2c1	HCT-8	RNA-seq, refers to: SLC6A12		concentration not given		mRNA level, LS mean	2.4 counts per million
O=C(O)c1ccc(-c2c[nH]c3ncc(-c4ccccc4)cc23)cc1C1CCCC1	SK-OV-3	ATP		10 µM, 4 days, 3D gellan gum culture	relative to: untreated	relative cell number	101%
Nc1ncnc2c1ncn2[C@@H]1O[C@H](CO)[C@@H](O)[C@H]1O	activated human T cells	refers to: adenine		10 µM	relative to: DMSO	log2 fold change	0.5 and 0.66 and 0.374
C=CC(=O)N1CCCN(C(=O)c2cc(Sc3cnc(NC(=O)C4CC4)s3)c(C)cc2OC)C[C@H]1C	H9	Western blot		concentration not given, 30 s, with: anti-CD3		PLCγ1 phosphorylation	inhibited
CCCCCCNC(=O)n1cc(F)c(=O)[nH]c1=O	SW-403	LC-MS, refers to: Cer(d18:1/18:0)		0.1 µM		ceramide level	0.58 ± 0.06 pmol/mg protein
O=C(/C=C/c1cccc(S(=O)(=O)Nc2ccccc2)c1)NO	differentiated THP-1			25 µg/mL	relative to: untreated	IL-1β mRNA level	decreased
CC/C(=N\NC(=O)NCc1cccc(O)c1)c1ccc(O)c(C)c1O	SK-OV-3	gene expression, microarray, refers to: IDO1		10 µM, 24 h	relative to: DMSO	log ratio	-3.83
C[C@H]1CN(C2COC2)CCN1c1ccc(Nc2cc(-c3ccnc(N4CCn5c(cc6c5CC(C)(C)C6)C4=O)c3CO)cn(C)c2=O)nc1	Ramos	calcium flux, FLIPR		1 h preincubation		maximum inhibition	97.4%
Cc1nc(Nc2ncc(C(=O)Nc3c(C)cccc3Cl)s2)cc(N2CCN(CCO)CC2)n1	iCell Cardiomyocytes (hiPSC-derived)	cellular impedance		concentration not given, 24 h	relative to: control	cell index	104%
C[C@@H]1CN(C(=O)c2ccc(NC(=O)c3cc(O[C@H](C)c4c(Cl)ccc(F)c4Cl)c(N)nn3)cc2)C[C@H](C)N1	NB1 (ALK amplification, exon 2-3 deletion)	cell viability				Emax	81.7%
CNC(=O)c1cc(Oc2ccc(NC(=O)Nc3ccc(Cl)c(C(F)(F)F)c3)cc2)ccn1	iCell Cardiomyocytes (hiPSC-derived)	xCELLigence Cardio impedance		concentration not given, 2 h	relative to: control	beat amplitude	98.7%
Cc1nc(N(Cc2ccccc2)c2ccc3c(c2)/C(=C/c2ccccc2)C(=O)N3Cc2ccccc2)c2ccccc2n1 (mixture of isomers)	A549			1.0 µM, 24 h		wound healing rate	10.6%
O=C(/C=C/C=C/C=C/C1CCCCC1)NC1=C[C@@](O)(/C=C/C=C/C=C/C(=O)NC2=C(O)CCC2=O)[C@@H]2O[C@@H]2C1=O	HCC1500	cell growth, CellTiter-Glo		78 h		GI50	9.77 µM
COc1ccc(OC)c(-c2nc3ccc(-c4nc5ccc(N6CCN(C)CC6)cc5[nH]4)cc3[nH]2)c1	BT-549	SRB		10 µM, 48 h		growth percent	96%
Nc1cccc2c1C(=O)N(C1CCC(=O)NC1=O)C2=O (centres unmarked)	bone marrow CD138+ myeloma cells	XTT		1 µM, phenol red-free RPMI		viability	80%
O=c1[nH]nc(OCCCc2ccc(Cl)cc2)c(NCc2cccnc2)c1Br	HEK-293T	RNA-seq GSEA, refers to: HALLMARK_UV_RESPONSE_DN		concentration not given	direction not given	normalized enrichment score	1.31
COc1cc(N2CCC(N3CCN(C)CC3)CC2)ccc1Nc1ncc(Cl)c(Nc2ccccc2S(=O)(=O)C(C)C)n1	iCell Cardiomyocytes (hiPSC-derived)	xCELLigence Cardio impedance		concentration not given, 2 h	relative to: control	beat amplitude	99.8%
Cn1cc(-c2ccc(-c3cncc(Cl)c3N3CCC4(CCNC4=O)CC3)cc2)cn1	COLO 205	gene expression, microarray, refers to: CALD1 mRNA		concentration not given, 6 h	relative to: untreated cells	log2 fold change	2.01
C[C@H]1[C@@H](O)O[C@@H]2O[C@@]3(C)CC[C@H]4[C@H](C)CC[C@@H]1[C@@]24OO3	THP-1	annexin V/PI flow cytometry, refers to: annexin V+/PI+		0.4 µM, 24 h		late apoptotic cells	1.4%
CC[C@H](C)[C@H](NC(=O)[C@H](CC(C)C)NC(=O)[C@@H](NC(=O)[C@@H]1CCCN1C(=O)[C@@H](NC(=O)[C@@H]1CCCN1C(=O)[C@@H](NC(=O)[C@H](CO)NC(=O)[C@H](Cc1c[nH]cn1)NC(=O)[C@@H]1CCCN1C(=O)[C@H](CCCNC(=N)N)NC(=O)[C@H](CCCCN)NC(=O)[C@H](CCCNC(=N)N)NC(=O)[C@H](CCCNC(=N)N)NC(=O)[C@H](CCCNC(=N)N)NC(=O)[C@@H]1CCCN1C(=O)[C@H](CCCNC(=N)N)NC(=O)[C@H](CC(C)C)NC(=O)[C@H](CC(C)C)NC(=O)[C@H](Cc1c[nH]cn1)NC(=O)[C@H](Cc1c[nH]cn1)NC(=O)CNC(=O)[C@@H](N)CSSC[C@H](N)C(=O)NCC(=O)N[C@@H](Cc1c[nH]cn1)C(=O)N[C@@H](Cc1c[nH]cn1)C(=O)N[C@@H](CC(C)C)C(=O)N[C@@H](CC(C)C)C(=O)N[C@@H](CCCNC(=N)N)C(=O)N1CCC[C@H]1C(=O)N[C@@H](CCCNC(=N)N)C(=O)N[C@@H](CCCNC(=N)N)C(=O)N[C@@H](CCCNC(=N)N)C(=O)N[C@@H](CCCCN)C(=O)N[C@@H](CCCNC(=N)N)C(=O)N1CCC[C@H]1C(=O)N[C@@H](Cc1c[nH]cn1)C(=O)N[C@@H](CO)C(=O)N[C@H](C(=O)N1CCC[C@H]1C(=O)N[C@H](C(=O)N1CCC[C@H]1C(=O)N[C@H](C(=O)N[C@@H](CC(C)C)C(=O)N[C@H](C(=O)N[C@@H](Cc1ccccc1)C(=O)N[C@@H](CCCNC(=N)N)C(=O)N[C@@H](CO)C(=O)N1CCC[C@H]1C(=O)O)[C@@H](C)CC)[C@@H](C)CC)[C@@H](C)O)[C@@H](C)CC)[C@@H](C)CC)[C@@H](C)O)[C@@H](C)CC)C(=O)N[C@@H](Cc1ccccc1)C(=O)N[C@@H](CCCNC(=N)N)C(=O)N[C@@H](CO)C(=O)N1CCC[C@H]1C(=O)O	MDA-MB-468, without PBMC			10 µg/mL		tumour cell density	no effect
Cn1cc(-c2ccc(F)c(C(F)(F)F)c2)nc1C1CCN(c2ncnc3[nH]ncc23)CC1	SK-OV-3	ATP	2D monolayer culture	0.01 µM, 4 days	relative to: untreated	relative cell number	102%

SMILES	cell line	test	test system	setting	how to read	measurement	value
COc1ccc2c(N(C)c3ccc(/C(C)=N/OCCN)cc3)c3c(Cl)coc3nc2c1	LNCaP C-81	immunoblot		1 µM, 72 h, steroid-reduced medium		phospho-ERK1/2 level	decreased
C=CC(=O)N1CCC[C@@H](c2ccc(C(N)=O)c3[nH]ccc23)C1	Ramos	calcium flux, FLIPR		1 h preincubation		IC50	0.00761 µM
COc1cc(N2CCC(N3CCN(C)CC3)CC2)ccc1Nc1ncc(Cl)c(Nc2ccccc2P(C)(C)=O)n1	Ba/F3 EML4-ALK variant 1 E1210K	cell viability				Emax	99.8%
COc1ccc2c(Cc3ccc(OC)c(OC)c3)nccc2c1	A549	mitochondrial oxygen consumption, Seahorse XF96		10 µM		inhibition	81%
CCCCN1C[C@H](O)[C@@H](O)[C@@H](O)[C@H]1CO	sample E patient fibroblasts	Gb3 level lowering, LC-MS/MS, refers to: Gb3 d18:1/20:0		216 h		IC50	56 µM
Cn1nnc2c(C(N)=O)ncn2c1=O	C6 rat glioma	live/dead staining		1000 µM, 24 h		cells killed	~50%
O=C(O)c1ccc(Nc2ncc3c(n2)-c2ccc(Cl)cc2C(c2c(F)cccc2F)=NC3)cc1	iCell Cardiomyocytes (hiPSC-derived)	cellular impedance		concentration not given, 24 h	relative to: control	cell index	99%
CCn1cc(-c2cc(Cn3ccoc3=N)cc3c2CCN([C@@H](C)c2cc(OC)ccn2)C3=O)c(C(F)(F)F)n1	Detroit 562	cell growth		120 h		EC50	> 30 µM
Cc1cccc(-c2[nH]c(CNc3ccccc3F)nc2-c2ccc3ncnn3c2)n1	RPMI-8226	flow cytometry, refers to: CD27		concentration not given	relative to: comparator compound alone	surface marker level	50.3%
CCCN1CCN(c2ccc3nc(-c4ccc5nc(-c6cc(OC)ccc6OC)[nH]c5c4)[nH]c3c2)CC1	NCI/ADR-RES	cell growth, NCI-60 SRB		10 µM, 48 h		growth percent	111%
COc1cnc2cccc(N3CCc4c(cc(Cn5ccnc5C)cc4-c4cn(C)nc4C(F)(F)F)C3=O)c2c1	RT-4	cell growth, inhibitor		120 h		EC50	4.79 µM
CSc1cc(Oc2ccnc3[nH]c(=O)cnc23)ccc1NC(=O)Nc1cc(C(C)(C)C)nn1-c1ccccc1	patient-derived cells	RPPA, refers to: phosphorylated Tuberin		1 µM, 4 h, mean of three patients	relative to: DMSO	phospho ratio	1.05
COC(=O)c1cc(C(C)=NNc2nc(-c3ccc4c(c3)OCCCO4)cs2)ccc1O	T47D	flow cytometry		10 µM, 72 h		cells in G1 phase	74.2 ± 1.87%
C[C@]12CCCN1CC1=NNC(=O)c3cc(F)cc4[nH]c2c1c34	HCT-15 colorectal cancer cells	cell viability		concentration not given, with: with temozolomide		EC50	1.9 µM
CCN1CCN(Cc2ccc(NC(=O)Nc3ccc(Oc4cc(NC)ncn4)cc3)cc2C(F)(F)F)CC1	iCell Cardiomyocytes (hiPSC-derived)	xCELLigence Cardio impedance		concentration not given, 2 h	relative to: control	beat rate	77.4%
CC#CC(=O)N1CCC[C@H]1c1nc(-c2ccc(C(=O)Nc3ccccn3)cc2)c2c(N)nccn12	Ramos	calcium flux, FLIPR		4 h preincubation		IC50	0.0066 µM
C=CC(=O)N1C/C(=C\c2ccc([N+](=O)[O-])cc2)C(=O)/C(=C/c2ccc([N+](=O)[O-])cc2)C1	ARPE-19 HiBiT fibulin-3	HiBiT luminescence		5 µM		fibulin-3 level	-63%
COc1cccc(-c2cccc(Cc3ncnc4cc(OC)c(OC)cc34)c2)c1	A549	mitochondrial oxygen consumption, Seahorse XF96		10 µM		inhibition	58%
Cc1[nH]c(/C=C2\C(=O)Nc3ccc(F)cc32)c(C)c1C(=O)NC[C@H](O)CN1CCOCC1	iCell Cardiomyocytes (hiPSC-derived)	xCELLigence Cardio impedance		concentration not given, 2 h	relative to: control	beat rate	90.8%
Cc1cc(Nc2ncc(Cl)c(Nc3ccccc3S(=O)(=O)C(C)C)n2)c(OC(C)C)cc1C1CCNCC1	CLB-BAR	phosphoproteomics LC-MS/MS, refers to: CCDC88C phosphorylation		200 nM, 60 min	relative to: untreated	log2 fold change	-5.88
Cn1c(Nc2ccc(C(F)(F)F)cc2)nc2cc(Oc3ccnc(-c4ncc(C(F)(F)F)[nH]4)c3)ccc21	iCell Cardiomyocytes (hiPSC-derived)	CellTiter-Glo		concentration not given, 24 h	relative to: control	ATP level	96.3%
CCn1c(-c2nonc2N)nc2cncc(CNC3CCNCC3)c21	SK-OV-3	ATP	2D monolayer culture	10 µM, 4 days	relative to: untreated	relative cell number	50.6%

Some of these lines once more:
SMILES	cell line	test	test system	setting	how to read	measurement	value
Nc1cccc2c1C(=O)N(C1CCC(=O)NC1=O)C2=O (centres unmarked)	bone marrow CD138+ myeloma cells	XTT		1 µM, phenol red-free RPMI		viability	80%
Cc1nc(Nc2ncc(C(=O)Nc3c(C)cccc3Cl)s2)cc(N2CCN(CCO)CC2)n1	iCell Cardiomyocytes (hiPSC-derived)	cellular impedance		concentration not given, 24 h	relative to: control	cell index	104%
CC#CC(=O)N1CCC[C@H]1c1nc(-c2ccc(C(=O)Nc3ccccn3)cc2)c2c(N)nccn12	Ramos	calcium flux, FLIPR		4 h preincubation		IC50	0.0066 µM
CC[C@H](C)[C@H](NC(=O)[C@H](CC(C)C)NC(=O)[C@@H](NC(=O)[C@@H]1CCCN1C(=O)[C@@H](NC(=O)[C@@H]1CCCN1C(=O)[C@@H](NC(=O)[C@H](CO)NC(=O)[C@H](Cc1c[nH]cn1)NC(=O)[C@@H]1CCCN1C(=O)[C@H](CCCNC(=N)N)NC(=O)[C@H](CCCCN)NC(=O)[C@H](CCCNC(=N)N)NC(=O)[C@H](CCCNC(=N)N)NC(=O)[C@H](CCCNC(=N)N)NC(=O)[C@@H]1CCCN1C(=O)[C@H](CCCNC(=N)N)NC(=O)[C@H](CC(C)C)NC(=O)[C@H](CC(C)C)NC(=O)[C@H](Cc1c[nH]cn1)NC(=O)[C@H](Cc1c[nH]cn1)NC(=O)CNC(=O)[C@@H](N)CSSC[C@H](N)C(=O)NCC(=O)N[C@@H](Cc1c[nH]cn1)C(=O)N[C@@H](Cc1c[nH]cn1)C(=O)N[C@@H](CC(C)C)C(=O)N[C@@H](CC(C)C)C(=O)N[C@@H](CCCNC(=N)N)C(=O)N1CCC[C@H]1C(=O)N[C@@H](CCCNC(=N)N)C(=O)N[C@@H](CCCNC(=N)N)C(=O)N[C@@H](CCCNC(=N)N)C(=O)N[C@@H](CCCCN)C(=O)N[C@@H](CCCNC(=N)N)C(=O)N1CCC[C@H]1C(=O)N[C@@H](Cc1c[nH]cn1)C(=O)N[C@@H](CO)C(=O)N[C@H](C(=O)N1CCC[C@H]1C(=O)N[C@H](C(=O)N1CCC[C@H]1C(=O)N[C@H](C(=O)N[C@@H](CC(C)C)C(=O)N[C@H](C(=O)N[C@@H](Cc1ccccc1)C(=O)N[C@@H](CCCNC(=N)N)C(=O)N[C@@H](CO)C(=O)N1CCC[C@H]1C(=O)O)[C@@H](C)CC)[C@@H](C)CC)[C@@H](C)O)[C@@H](C)CC)[C@@H](C)CC)[C@@H](C)O)[C@@H](C)CC)C(=O)N[C@@H](Cc1ccccc1)C(=O)N[C@@H](CCCNC(=N)N)C(=O)N[C@@H](CO)C(=O)N1CCC[C@H]1C(=O)O	MDA-MB-468, without PBMC			10 µg/mL		tumour cell density	no effect
COC(=O)c1cc(C(C)=NNc2nc(-c3ccc4c(c3)OCCCO4)cs2)ccc1O	T47D	flow cytometry		10 µM, 72 h		cells in G1 phase	74.2 ± 1.87%
Cc1nc(N(Cc2ccccc2)c2ccc3c(c2)/C(=C/c2ccccc2)C(=O)N3Cc2ccccc2)c2ccccc2n1 (mixture of isomers)	A549			1.0 µM, 24 h		wound healing rate	10.6%
